Published values gathered from unrelated publications.
Parts stem from different laboratories: compare values within a part only. Positions count from the first letter of the parent shown.

Set 1
Target: CCNB3, cyclin fold, Cln2 fusion (human)
Method: yeast growth competition, sequencing
Sample: yeast
Notes: weak parent motif
Baseline: not given
Direction: higher = stronger binding
Starting sequence: ASZ1 docking peptide (human); GFGFLLFICKLTF; partner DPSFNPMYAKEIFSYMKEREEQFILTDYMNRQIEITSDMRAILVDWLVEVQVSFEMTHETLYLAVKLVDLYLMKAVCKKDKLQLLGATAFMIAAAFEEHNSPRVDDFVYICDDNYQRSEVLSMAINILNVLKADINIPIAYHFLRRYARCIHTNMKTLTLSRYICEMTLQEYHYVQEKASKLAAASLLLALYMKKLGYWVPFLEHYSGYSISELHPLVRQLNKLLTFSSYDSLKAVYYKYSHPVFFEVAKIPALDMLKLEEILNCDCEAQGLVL
Variant | normalised enrichment score
GFGFLLFICKLAF [T12A] | -0.184
GFGFLLFICALTF [K10A] | 0.303
GFGFLLAICKLTF [F7A] | 0.385
AFGFLLFICKLTF [G1A] | 0.208
GFGFLLFACKLTF [I8A] | 0.248
GFGFLLFICKLTA [F13A] | 0.404
GFGFALFICKLTF [L5A] | 0.0895

Set 2
Target: Prothrombin, mature alpha-thrombin (F2, Homo sapiens, UniProt P00734)
Method: aptamer microarray, sandwich
Molecule type: DNA with 2'F-ANA
Sample: in vitro
Concentration: 200 nM
Notes: whole 15-mer aptamer, many near background
Added: Cy3 exosite-II aptamer, 400 nM
Direction: higher = stronger binding
Strand: GGTTGGTGTGGTTGG
Modification | mean fluorescence intensity [a.u.]
2'F-ANA at 3 4 7 10 12 13 14 | 214
2'F-ANA at 2 6 7 10 11 13 14 | 72.9
2'F-ANA at 1 2 4 7 8 10 13 15 | 48
2'F-ANA at 1 6 7 13 15 | 136
2'F-ANA at 1 2 3 4 8 9 10 11 12 14 | 51.7
2'F-ANA at 4 5 6 8 9 10 11 12 | 67.1
2'F-ANA at 1 2 4 5 8 10 12 13 15 | 48.7
2'F-ANA at 1 2 4 7 8 9 10 13 | 65.6
2'F-ANA at 2 3 6 9 10 11 13 14 15 | 248
2'F-ANA at 1 2 4 7 8 10 11 12 | 55.4
2'F-ANA at 1 2 4 5 6 8 11 12 14 | 49.3
2'F-ANA at 6 8 9 12 13 | 655
2'F-ANA at 1 2 3 6 7 8 9 10 11 14 | 54.9
2'F-ANA at 1 3 4 5 7 9 12 13 | 71.8
2'F-ANA at 1 2 3 4 5 6 7 9 15 | 62.9
2'F-ANA at 5 7 8 9 10 12 15 | 115
2'F-ANA at 2 4 5 7 9 10 11 12 13 | 88.4
2'F-ANA at 7 10 12 13 14 15 | 119
2'F-ANA at 1 3 4 5 8 11 12 13 | 128
2'F-ANA at 1 10 12 14 15 | 58.9
2'F-ANA at 3 9 10 11 13 14 | 405
2'F-ANA at 3 4 6 | 629
2'F-ANA at 6 8 9 11 14 | 187
2'F-ANA at 1 4 5 6 8 11 12 14 15 | 46.5
2'F-ANA at 4 5 6 7 9 12 14 | 45.4

Set 3
Target: Sal-like protein 4, full length isoform B (SALL4, Homo sapiens, UniProt Q9UJQ4-2, residues 1-616)
Method: universal PBM
Molecule type: double-stranded DNA, one strand shown
Sample: in vitro
Concentration: not given
Notes: 8-mer, flanks averaged, mean of replicates
Direction: higher = stronger binding
Construct (chain): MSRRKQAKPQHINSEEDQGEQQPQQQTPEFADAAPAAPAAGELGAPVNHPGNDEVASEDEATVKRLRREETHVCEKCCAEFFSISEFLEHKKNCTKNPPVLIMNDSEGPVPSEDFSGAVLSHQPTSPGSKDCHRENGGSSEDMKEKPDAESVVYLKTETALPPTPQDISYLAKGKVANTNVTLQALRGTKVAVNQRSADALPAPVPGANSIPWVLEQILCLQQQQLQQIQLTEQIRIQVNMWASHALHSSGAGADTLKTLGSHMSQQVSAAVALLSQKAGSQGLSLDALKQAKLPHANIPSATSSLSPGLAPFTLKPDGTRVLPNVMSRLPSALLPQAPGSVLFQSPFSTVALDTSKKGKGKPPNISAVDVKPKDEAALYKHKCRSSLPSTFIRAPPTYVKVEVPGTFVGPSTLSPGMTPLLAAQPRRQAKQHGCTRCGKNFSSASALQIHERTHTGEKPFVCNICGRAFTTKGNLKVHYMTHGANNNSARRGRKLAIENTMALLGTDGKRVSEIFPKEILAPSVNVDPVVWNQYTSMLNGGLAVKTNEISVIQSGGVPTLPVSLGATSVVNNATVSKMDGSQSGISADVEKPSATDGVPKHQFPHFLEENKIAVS
Strand | E-score
GTGCACCA | -0.0247
ATGTTAGG | 0.168
CAAATTCA | 0.108
AGATTCCC | -0.0895
AATTTTGC | 0.28
GCGCTGTA | -0.128
AGGACACG | -0.111
AATATTCA | 0.399
GTGTAAGA | 0.13
AGAGGGAA | -0.0194
ACATCTAG | 0.075
AACTGAAA | 0.229
GAATGTAC | 0.0466
AACCATCA | 0.188
AACCACCT | 0.0387
ACAAAAGA | 0.211
ATCTAAAC | 0.167
ACAACCGG | -0.159
CCCTCAGA | -0.146
GCCGCAGC | -0.33
ACGATATG | 0.218
TCATGGGA | -0.0463
CATCTGCA | 0.0643
AACCATTG | 0.12

Set 4
Target: Fragile X messenger ribonucleoprotein 1, C-terminal low-complexity region (Fmr1, Mus musculus, UniProt P35922)
Method: RNA Bind-n-Seq
Molecule type: RNA
Sample: in vitro
Concentration: 200 nM
Notes: whole 134-nt RNA, ends assumed
Added: 150 mM LiCl
Baseline: input library
Direction: higher = stronger binding
Library: 7-deaza-guanosine replaces G
Shared flanks, not repeated: GGGAGUUCUACAGUCCGACGAUC … UGGAAUUCUCGGGUGUCAAGG
Strand | log2 enrichment
AGUCCUGUGCUACACAUCGUAUGUACCGAAUCGGGGAAAAAGGGGAGGGGUUUGGGGAAAGUAUUAUGUUACGCCGUUCGGAUCUGCACU | -0.714
CACAGACAACACGCACCCACACAGACACAGAGGGAAGGGGUUGGGAUGGGGACAGGGUGCACAGCAGGGCGAAAUAGGACCCCAGCCCCU | 1.75
CAAGUCCUGUGCUACACAUCGUAUGUACCGAAUCGGGGCCCGGGCCCGGGCCCGGAAAGUAUUAUGUUACGCCGUUCGGAUCUGCACUUC | -1.52
CCUCAAGUCCUGUGCUACACAUCGUAUGUACCGAAUCGGUGGUUUGGAAAGGAAAGUAUUAUGUUACGCCGUUCGGAUCUGCACUUCCAG | 0.578
UGAUGGGACAACACCCGAAAGGAUAGCACAAAUAACAGGACCUCCAGACCGAUGUCAACAUGCUGCAGAAAUUAUUACAGACCUUCUUCG | 1.74
CCUGUGCUACACAUCGUAUGUACCGAAUCGGGGAAAAAGGGGUUUGGGGAAAAAAAGGGGAAAGUAUUAUGUUACGCCGUUCGGAUCUGC | -1.46
AAGUCCUGUGCUACACAUCGUAUGUACCGAAUCGGUGGAAAAAAAGGAAAAAAAGGAAAGUAUUAUGUUACGCCGUUCGGAUCUGCACUU | -1.83
CUCAAGUCCUGUGCUACACAUCGUAUGUACCGAAUCGGGGUUGGUUGGGGUUGGAAAGUAUUAUGUUACGCCGUUCGGAUCUGCACUUCC | -0.532
UAAGUUUAGAGGAGGAUCUGAUGGAUAUGGCAGUGGACGUGGAUUUGGGGAUGGCUAUAAUGGGUAUGGAGGAGGACCUGGAGGUGGCAA | 0.224
UCAAGUCCUGUGCUACACAUCGUAUGUACCGAAUCGGGGAGGGGAGGGGUGGGGAAAGUAUUAUGUUACGCCGUUCGGAUCUGCACUUCC | -0.0189
UGUCCCUGACUCUCCAUUUCCCCAUCUGAGUGGAUUUGGACCUAAUAGGGCACUGGAGCUGGUUCGAAUCCUGACUGGACUACUUGGCAA | 0.59

Mixed results
Molecule | target | assay | test system | setting | how to read | endpoint | result
PhoQ, residues 284 288 289 292 302 303 SSCLAV | PhoP, residues 12 14 15 18 19 LHSVW (Escherichia coli, UniProt P23836) | Sort-seq, refers to: YFP reporter | E. coli | PhoQ-PhoP variant library, added: 10 µM Mg2+ | baseline: high Mg2+ state, higher = stronger signaling | fold induction | 1.98

Excerpt of the above (set 2):
Modification | mean fluorescence intensity [a.u.]
2'F-ANA at 6 8 9 12 13 | 655
2'F-ANA at 1 2 3 6 7 8 9 10 11 14 | 54.9
2'F-ANA at 1 3 4 5 7 9 12 13 | 71.8
2'F-ANA at 1 2 3 4 5 6 7 9 15 | 62.9
2'F-ANA at 5 7 8 9 10 12 15 | 115
2'F-ANA at 2 4 5 7 9 10 11 12 13 | 88.4
